Published values gathered from unrelated publications.
Every numbered part comes from another study and shows a few of its results, in no order. Changes are numbered by the printed parent chain.

Sample 1
Target: FOSB, bZIP domain (human)
Technique: DHFR protein complementation
Sample: yeast
Setting: single substitutions, most at no-binding floor
Reference: wild-type JUN-FOS pair
Direction: higher = stronger binding
Endpoint: binding fitness
Starting sequence: JUN, bZIP domain (human); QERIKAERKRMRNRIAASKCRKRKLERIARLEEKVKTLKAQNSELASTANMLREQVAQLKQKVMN
L52D: -1.33 natural log
V35P: -1.21 natural log
L52Q: -1.54 natural log
L45Q: -1.34 natural log

Sample 2
Target: Fragile X messenger ribonucleoprotein 1, C-terminal low-complexity region (Fmr1, Mus musculus, UniProt P35922)
Technique: RNA Bind-n-Seq
Molecule type: RNA
Sample: in vitro
Concentration: 200 nM
Setting: whole 134-nt RNA, ends assumed
Together with: 150 mM KCl
Reference: input library
Direction: higher = stronger binding
Endpoint: log2 enrichment
All sequences stand within: GGGAGUUCUACAGUCCGACGAUC … UGGAAUUCUCGGGUGUCAAGG
UCAAGUCCUGUGCUACACAUCGUAUGUACCGAAUCGGAAAAAAAGGUGGUUUGGAAAGUAUUAUGUUACGCCGUUCGGAUCUGCACUUCC: -0.835
UGGACAGGUUGCUGGACCCCGCCAACAGAGCCCACCUGGGCCUGGAGGAGCAGCUGAGAGAGCUGCUGGACAUGCUCGACCUCACCUGCG: -1.33
CAAGUCCUGUGCUACACAUCGUAUGUACCGAAUCGGAAAAAAAGGAGGUUUUUGGAAAGUAUUAUGUUACGCCGUUCGGAUCUGCACUUC: -0.767
GUCCUGUGCUACACAUCGUAUGUACCGAAUCGGGGCCCCCGGGCCCCCGGGCCCCCGGGAAAGUAUUAUGUUACGCCGUUCGGAUCUGCA: -0.693
CCUCAAGUCCUGUGCUACACAUCGUAUGUACCGAAUCGGGUGGGGUGGGUGGAAAGUAUUAUGUUACGCCGUUCGGAUCUGCACUUCCAG: 1.36
CACAGACAACACGCACCCACACAGACACAGAGGGAAGGGGUUGGGAUGGCGACAGGGUGCACAGCAGGGCGGGGUAGGACCCCAGCCCCU: 0.76
UCCUGUGCUACACAUCGUAUGUACCGAAUCGGGGCCCCCCGGGCCCCCCGGCCCCCCGGAAAGUAUUAUGUUACGCCGUUCGGAUCUGCA: -0.139
GCAGGAAGUAAAAACAAAUGGAAAUGCUUCGGAUAGUGGCAGGGGUGGGGGUUGCUAAGGAAAGGGUGGGAUGGGAGUGAAAAAAGAGUU: 0.048
AGUCCUGUGCUACACAUCGUAUGUACCGAAUCGGGGAGGGGUGGGGAAAAAAAGGGGAAAGUAUUAUGUUACGCCGUUCGGAUCUGCACU: 0.807
UAACUUUAGAGGAGGAUCUGAUGGAUAUGGCAGUGGACGUGGAUUUGGGGAUGGCUAUAAUGGGUAUGGAGGAGGAGCUGGAGGUGGCAA: 0.777

Sample 3
Target: Histone acetyltransferase KAT6A, both winged helices, GST fusion (KAT6A, Homo sapiens, UniProt Q92794, residues 1-181)
Technique: protein binding microarray
Molecule type: double-stranded DNA, one strand shown
Sample: in vitro
Concentration: not given
Setting: 8-mer, flanks averaged, mean of 2 arrays, mostly near background
Reference: not given
Direction: higher = stronger binding
Endpoint: E-score
Residues (chain): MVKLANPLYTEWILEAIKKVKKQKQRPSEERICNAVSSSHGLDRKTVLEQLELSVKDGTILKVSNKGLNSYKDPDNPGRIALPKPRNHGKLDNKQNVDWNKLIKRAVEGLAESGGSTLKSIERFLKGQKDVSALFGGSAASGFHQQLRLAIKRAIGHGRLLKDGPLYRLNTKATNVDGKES
CATCTCCG: 0.0142
AGACGTCC: -0.0563
CCGCAGTA: 0.109
TAACTAGA: 0.0221
ACGTACAT: -0.0389
AGTTGAAG: -0.282
GGCTAGGA: -0.194
CCGACTCC: 0.0583
ATCAGTGC: -0.0851
GCCCTACA: -0.11
ATAGTCGA: -0.13
ATCGCCAA: 0.0544
ACAATACT: -0.0948
GGTACCGA: 0.0193
ACGGAAGA: 0.264
CTTTGTTA: -0.0166
AATCAACG: 0.158
CAACAGTA: -0.153
GCAAGCGC: 0.266
GACTAAGC: 0.00373
AAAAAACT: -0.171
CCCTTGCA: -0.176
CGGTGGAG: 0.00363
AAATTCCA: -0.224
GCTATTCC: -0.0647

Sample 4
Target: Sal-like protein 4, full length isoform B (SALL4, Homo sapiens, UniProt Q9UJQ4-2, residues 1-616)
Technique: universal PBM
Molecule type: double-stranded DNA, one strand shown
Sample: in vitro
Concentration: not given
Setting: 8-mer, flanks averaged, mean of replicates
Direction: higher = stronger binding
Endpoint: E-score
Residues (chain): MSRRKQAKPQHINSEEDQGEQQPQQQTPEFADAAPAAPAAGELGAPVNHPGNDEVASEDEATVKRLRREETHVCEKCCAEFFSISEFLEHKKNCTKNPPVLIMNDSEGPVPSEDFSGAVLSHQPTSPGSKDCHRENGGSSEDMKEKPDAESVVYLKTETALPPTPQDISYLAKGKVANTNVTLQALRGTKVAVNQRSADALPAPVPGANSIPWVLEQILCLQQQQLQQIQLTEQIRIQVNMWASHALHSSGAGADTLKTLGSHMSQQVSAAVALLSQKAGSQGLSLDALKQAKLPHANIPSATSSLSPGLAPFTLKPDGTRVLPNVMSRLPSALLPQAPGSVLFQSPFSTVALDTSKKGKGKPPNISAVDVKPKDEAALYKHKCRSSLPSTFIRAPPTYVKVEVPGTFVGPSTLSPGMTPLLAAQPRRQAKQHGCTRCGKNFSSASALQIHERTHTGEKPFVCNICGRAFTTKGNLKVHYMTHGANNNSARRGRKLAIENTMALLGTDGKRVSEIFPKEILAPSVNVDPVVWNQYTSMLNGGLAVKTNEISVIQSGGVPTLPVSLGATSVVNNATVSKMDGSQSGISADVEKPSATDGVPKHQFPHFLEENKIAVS
TACGGGAA: -0.148
AAAAGGGG: -0.108
CCCGCAGA: -0.182
ACGGTCTA: 0.0306
CTTCGTTC: -0.134
CAGACGAG: -0.0973
CCGCACCA: -0.236
ACATATCG: 0.0787
AAGCCCGC: -0.232
CGGCTCAC: -0.15
AGCCCATG: -0.148
CGAGAATA: 0.0292
TAGAGTGA: 0.0448
CCAGGATC: -0.232
AAAAATCT: 0.271
ACGCGAAC: -0.126
GCAATCTA: 0.11
GCAAAACC: -0.0949

Sample 5
Target: Interferon regulatory factor 7, full length, phosphomimetic (IRF7, Homo sapiens, UniProt Q92985, residues 1-503, S471D/S472D/S475D/S476D/S477D/S483D/S484D/S487D)
Technique: protein-binding microarray
Molecule type: double-stranded DNA, one strand shown
Sample: in vitro
Concentration: 2200 nM top
Setting: 60-bp whole probe
Together with: salmon DNA 0.4 mg/ml
Reference: random background probes
Direction: higher = stronger binding
Endpoint: fitted relative affinity
All sequences stand within: GCCTAGCAC … GTCTTGATTCGCTTGACGCTGCTG
Target sequence (chain): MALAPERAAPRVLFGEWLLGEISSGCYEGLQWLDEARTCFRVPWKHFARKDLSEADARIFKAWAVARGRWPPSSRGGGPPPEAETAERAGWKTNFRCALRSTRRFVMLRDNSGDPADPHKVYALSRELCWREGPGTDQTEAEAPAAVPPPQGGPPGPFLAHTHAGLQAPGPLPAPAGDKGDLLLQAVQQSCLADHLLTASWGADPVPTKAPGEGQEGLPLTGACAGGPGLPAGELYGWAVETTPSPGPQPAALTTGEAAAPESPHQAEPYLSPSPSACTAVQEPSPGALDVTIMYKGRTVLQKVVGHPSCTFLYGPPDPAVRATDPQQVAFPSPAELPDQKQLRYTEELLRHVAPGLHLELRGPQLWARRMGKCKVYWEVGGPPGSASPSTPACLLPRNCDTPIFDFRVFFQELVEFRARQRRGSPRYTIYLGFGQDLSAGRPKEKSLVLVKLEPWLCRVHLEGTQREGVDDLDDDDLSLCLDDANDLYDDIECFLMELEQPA
TTAGGTTTCGTACTGGGTTAGTGCTAG: 3.4 z-score
TCTACTTCTGTTTTTGCTTTGTGCTAG: 4.29 z-score
TTGGGTATCGGTCTCGGTTAGTGCTAG: 1.03 z-score
TTCCCAATGGTCTTTCCACTTGTGCTA: 2.77 z-score
GACGGTTTTCTTTCCCTGACGTGCTAG: 3 z-score
ATGCTTCTGTATTCATGAAGGTGCTAG: 1.04 z-score
TTAGGACTGCTTCTACTTTAGTGCTAG: 0.228 z-score
TTAGATCTCAGTTTGGATTAGTGCTAG: 0.462 z-score
TTAGGCCTGGGGTATCGGTTAGTGCTA: -0.806 z-score
TTAGATATCAGTGTCGATTAGTGCTAG: -0.0393 z-score
GACGATATCAGTTTCGAGGCGTGCTAG: 2.88 z-score
TTAGGTATCGGGCTCGGTTAGTGCTAG: 0.148 z-score
CTGGTCCTCCTGACTGGGGTGGTGCTA: -0.427 z-score
TTAGCTTTCGGGACTGGATTAGTGCTA: 3.34 z-score
TCAGGCTTCATGTTGCTCACTGTGCTA: 0.76 z-score
TTCTATGACTACATTGCAGCGTGCTAG: 0.734 z-score
TCATGTCTGTAGCTCATACTGTGCTAG: 0.929 z-score
TTAGAACTGAGATTGGATTAGTGCTAG: -0.798 z-score

Repeated from above (sample 5):
TCAGGCTTCATGTTGCTCACTGTGCTA: 0.76 z-score
TTAGGTTTCGTACTGGGTTAGTGCTAG: 3.4 z-score
TTAGAACTGAGATTGGATTAGTGCTAG: -0.798 z-score
TTAGGACTGCTTCTACTTTAGTGCTAG: 0.228 z-score
GACGATATCAGTTTCGAGGCGTGCTAG: 2.88 z-score
ATGCTTCTGTATTCATGAAGGTGCTAG: 1.04 z-score
TTAGATATCAGTGTCGATTAGTGCTAG: -0.0393 z-score
TTAGGCCTGGGGTATCGGTTAGTGCTA: -0.806 z-score
TTAGGTATCGGGCTCGGTTAGTGCTAG: 0.148 z-score
TTAGATCTCAGTTTGGATTAGTGCTAG: 0.462 z-score
TCATGTCTGTAGCTCATACTGTGCTAG: 0.929 z-score
TTAGCTTTCGGGACTGGATTAGTGCTA: 3.34 z-score
